Assay results of several laboratories.
Compare with care: the assays were run in different laboratories. Numbers after ± are the reported error.
Target: Albumin (ALB, Homo sapiens, UniProt P02768)

SMILES | assay | setting | measurement | value
O=C([O-])CN1CCN(CC(=O)[O-])CCN(CC(=O)c2ccc(-c3ccc(OCC(=O)O)cc3)cc2)CCN(CC(=O)[O-])CC1.[Gd+3] |  | 25 °C, 60 MHz, together with: HSA 0.6 mM | r1 relaxivity | 11.4 mM⁻¹ s⁻¹
C#CC(=O)c1ccc(-c2c([Si](C)(C)C)c3ccccc3c3cc(-c4ccccc4)c4ccccc4[n+]23)cc1 | LC-MS | 16 h, pH 7.4, 25 °C, covalent modification of Cys34 | conversion | 70%
O=S([O-])c1ccccc1N=Cc1ccccc1[O-].[Cu+2].c1c[nH]cn1 | FRET | 4 µM | FRET efficiency | 0.35
CCCCCC(C)NCC(=O)O (centres unmarked) | binding, UV-vis absorption titration |  | midpoint concentration | 705 µM
C#CC(=O)Nc1ccc(-c2c([Si](C)(C)C)c3ccccc3c3c4ccccc4cc[n+]23)cc1 | LC-MS | 16 h, pH 7.4, 25 °C, covalent modification of Cys34 | conversion | 59%
CCCNCC(=O)O | circular dichroism | 0.12 mM | random coil content | 34%
NC1=N[N+](=Cc2c3ccccc3cc3ccccc23)[Ga-3]23([S]1)([S]C(N)=N[N+]2=Cc1c2ccccc2cc2ccccc12)[S]C(N)=N[N+]3=Cc1c2ccccc2cc2ccccc12 | fluorescence quenching | 303 K | Stern-Volmer constant | 166000 ± 8000 M⁻¹
C#CC(=O)c1ccc(-c2c([Si](C)(C)C)c3ccccc3c3ccc4ccccc4[n+]23)cc1 | LC-MS | 16 h, pH 7.4, 25 °C, covalent modification of Cys34 | conversion | 70%
Cc1ccc(C(C)C)cc1.O=C(N=P(c1ccccc1)(c1ccccc1)c1ccccc1)c1[c-]cccc1.[Cl-].[Ru+2] | fluorescence quenching | pH 7.4 | Stern-Volmer constant | 18100 M⁻¹
[C-]#[O+].[C-]#[O+].[C-]#[O+].[C-]#[O+].[C-]#[O+].[C-]#[O+].[Cl-].[Cl-].[Re+].[Re+].c1cnc(-c2ncccn2)nc1 | tryptophan fluorescence quenching |  | binding constant | 18700 M⁻¹
O=C1Nc2cccnc2N(C2CC2)c2ncccc21 | ITC | concentration not given, 298 K | binding stoichiometry | 2.7
Cc1c(C)c(C)[c-](C)c1C.[C-]#[O+].[C-]#[O+].[C-]#[O+].[Cl-].[Cl-].[Cl-].[Ir+3].[Re+].c1cnc(-c2ncccn2)nc1 | tryptophan fluorescence quenching |  | binding constant | 12400 M⁻¹
CCCCCCCCCCCCCCCCNC(=O)[O][Pt]([Cl])([Cl])[O]C(=O)CCC(=O)O.N.N | Trp214 fluorescence quenching |  | binding constant (Ka) | 1.04e+06 M⁻¹
Cc1cnc2c(c1)NC(=O)c1cccnc1N2C1CC1 | ITC | concentration not given, 298 K | binding stoichiometry | 1.3
CCCCCCCCCCCCNC(=O)[O][Pt]([Cl])([Cl])[O]C(=O)CCC(=O)O.N.N | Trp214 fluorescence quenching |  | binding constant (Ka) | 37000 M⁻¹
O=C1c2cccc[c]2[Au-]([Cl])([Cl])[N+]1=P(c1ccccc1)(c1ccccc1)c1ccccc1 | fluorescence quenching | pH 7.4, together with: HSA 10 µM | Stern-Volmer constant | 4.58e+06 M^–1
O=C(/C=C/c1ccc(O)c(O)c1)NCCCCCCCC[P+](c1ccccc1)(c1ccccc1)c1ccccc1 | van't Hoff analysis | concentration not given | ΔG of binding | -6.22 kcal/mol
